Assay results gathered from unrelated publications.
Parts stem from different laboratories: compare values within a part only.

Block 1
Target: Fragile X messenger ribonucleoprotein 1, C-terminal low-complexity region (Fmr1, Mus musculus, UniProt P35922)
Technique: RNA Bind-n-Seq
Molecule type: RNA
Sample: in vitro
Concentration: 200 nM
Setting: whole 134-nt RNA, ends assumed
Added: 150 mM LiCl
Relative to: input library
Reading: higher = stronger binding
Library: 7-deaza-guanosine replaces G
| Strand | log2 enrichment |
| --- | --- |
| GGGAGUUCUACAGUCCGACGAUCCAAGUCCUGUGCUACACAUCGUAUGUACCGAAUCGGAAAAAGGUUUUUGGUUUGGAAAGUAUUAUGUUACGCCGUUCGGAUCUGCACUUCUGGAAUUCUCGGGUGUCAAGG | -2.95 |
| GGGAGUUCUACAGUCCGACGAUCGUCCUGUGCUACACAUCGUAUGUACCGAAUCGGGGUGGGGAAAAAAAGGGGUUUGGGGAAAGUAUUAUGUUACGCCGUUCGGAUCUGCACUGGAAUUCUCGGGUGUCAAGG | -0.612 |
| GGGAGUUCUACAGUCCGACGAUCUCAAGUCCUGUGCUACACAUCGUAUGUACCGAAUCGGAAAGGAAAGGGGAAAGGAAAGUAUUAUGUUACGCCGUUCGGAUCUGCACUUCCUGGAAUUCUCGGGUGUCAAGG | -0.876 |
| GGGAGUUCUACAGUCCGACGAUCCCUCAAGUCCUGUGCUACACAUCGUAUGUACCGAAUCGGCCGGCCGGGCCGGAAAGUAUUAUGUUACGCCGUUCGGAUCUGCACUUCCAGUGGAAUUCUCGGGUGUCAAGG | 0.419 |
| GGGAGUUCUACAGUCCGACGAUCAGUCCUGUGCUACACAUCGUAUGUACCGAAUCGGGGUUUUUGGUUUUUGGUUUUUGGAAAGUAUUAUGUUACGCCGUUCGGAUCUGCACUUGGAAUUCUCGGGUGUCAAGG | -2.15 |
| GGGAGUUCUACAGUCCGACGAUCCUCAAGUCCUGUGCUACACAUCGUAUGUACCGAAUCGGUUGGGUUGGGUUGGGGAAAGUAUUAUGUUACGCCGUUCGGAUCUGCACUUCCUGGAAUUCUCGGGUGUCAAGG | -1.17 |

Block 2
Target: RNA binding protein fox-1 homolog 2, RRM domain, GST-SBP tag (RBFOX2, Homo sapiens, UniProt O43251-10, residues 100-194)
Technique: RNA Bind-n-Seq
Molecule type: RNA
Sample: in vitro
Concentration: 365 nM
Setting: natural RNA segment, single round, ends assumed
Relative to: no-protein control
Reading: higher = stronger binding
Target sequence (chain): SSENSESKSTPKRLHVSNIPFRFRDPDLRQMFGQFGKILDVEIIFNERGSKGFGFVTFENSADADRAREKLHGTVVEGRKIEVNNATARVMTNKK
| Strand | RBNS enrichment (R) |
| --- | --- |
| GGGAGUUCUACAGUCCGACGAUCGAAAGCAGUGCCUGCCAGCUGUUGUGCACCUUCCUGAGAAAUAAAUAUCCUCUAAAUUUUCAAACCAUCCUGUCUGGUGUUGGUUGAUUAGGUUGUGUCUGUGGGAACCAUGGAAUUCUCGGGUGCCAA | 0.829 |
| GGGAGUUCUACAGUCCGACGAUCCAGAGAAUCAGGUAACAUUGCACAGCCUGCGUUCUCCUGCAGUGGUGGCACGCCUUGUGCUGACGACCCCCACUGGGCUACAGUCACAGGAGAAUUGAGACUUGGAAAAGUGGAAUUCUCGGGUGCCAA | 0.324 |
| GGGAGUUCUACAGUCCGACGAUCCCUAUGCUAGCGACUGUGCUGGUUUCUUCUCUCCGGGCAUCUGGAUGGGUCUGCUCACCACCCUCUUCAUGCUUUUCAUAUUCACCUAUGGUCUGCACAUGAUACUCAGCUGGAAUUCUCGGGUGCCAA | 0.441 |
| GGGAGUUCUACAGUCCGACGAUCUGUAUUUUUAAAUAUGUUUUAAAAGAACUCAGGAACAAUUUACGUCUCUGUAUCUUUUUUUUACUAUUGUUGUUUUGACCUCAAAGCUGGGAAUAAAAGUCAGAGCCUUAUGGAAUUCUCGGGUGCCAA | 0.417 |
| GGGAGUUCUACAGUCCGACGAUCGUCCAACAUCAGGGAACACAAGGCUCUGAAGUGGCCCUGUGUGGAAGGUUGGCAGCUGCCUGGCCUCACUGAACCUUAGUGACAAGUCUUUGCCUCAGGAGCUGACUCAUUGGAAUUCUCGGGUGCCAA | 0.337 |
| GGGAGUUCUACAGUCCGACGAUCUCUGAAACAUUAUCAAACUUGUGUAAAUAUUUUGAUUUAUGUCUUAGAUCCUGUUAACCGUGUCCUCUAAUUGUCUUUAUUUUAAUGCCAAAAGGAAGUGAUUAUGCAGCUGGAAUUCUCGGGUGCCAA | 0.277 |
| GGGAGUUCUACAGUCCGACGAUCUCCUGCUUUUACUUUUGUCAUUUUCUUGAUAAUCGUAAGCCUUGAGAGUGUUUGUGAAAAAGUUUUAUUUCCUGUUAUGUAUACAUAAUUAAAUGAAAAUUCUUCAGAAAUGGAAUUCUCGGGUGCCAA | 0.259 |
| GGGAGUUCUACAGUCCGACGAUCGGGGUACUGAGUUCCCUGGUCCUUUGGCUGUGUGUGCAGCGUGCAGAUUUCGGGACACCGAAACUUUUACCUCAACUUAAGGGAAUAAAAACAAACAAACAAAAAAAGAUUGGAAUUCUCGGGUGCCAA | 0.461 |

Block 3
Target: Phosphate system positive regulatory protein PHO4, full length, GST-tagged (PHO4, Saccharomyces cerevisiae, UniProt P07270, residues 1-312)
Technique: competition protein-binding microarray
Molecule type: double-stranded DNA, one strand shown
Sample: in vitro
Concentration: 2 µM
Setting: whole 60-bp probe, lowest competitor level
Added: Cbf1 competitor, 0.05 µM
Reading: higher = stronger binding
Target sequence (chain): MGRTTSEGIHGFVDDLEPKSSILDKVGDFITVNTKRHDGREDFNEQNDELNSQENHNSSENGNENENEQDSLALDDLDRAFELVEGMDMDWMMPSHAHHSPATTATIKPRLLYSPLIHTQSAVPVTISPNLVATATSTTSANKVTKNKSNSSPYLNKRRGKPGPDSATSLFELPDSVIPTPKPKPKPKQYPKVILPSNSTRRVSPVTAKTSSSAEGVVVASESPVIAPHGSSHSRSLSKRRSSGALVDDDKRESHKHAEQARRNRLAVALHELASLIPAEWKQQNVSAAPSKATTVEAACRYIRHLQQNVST
| Strand | fluorescence intensity |
| --- | --- |
| CATTCGAAGCAGTGCCAAGTTCTATTGTATCATTCCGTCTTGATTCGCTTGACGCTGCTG | 3580 a.u. |
| TTAAGTCTATTATCAAGCATGATAACCATCATCAATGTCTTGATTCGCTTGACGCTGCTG | 4420 a.u. |
| GTCTTGTCTCATTGAGACGTGGGTGTCCCCACTTCAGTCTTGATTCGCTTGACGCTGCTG | 6050 a.u. |
| CTAACGAAGGTTTGGGCCGTGGGTGACAAGCCAAGTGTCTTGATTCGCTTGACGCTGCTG | 5400 a.u. |
| CTTTCCCGATCTTGTGCAGTGGGTGTAGCACATTTGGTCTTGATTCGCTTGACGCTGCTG | 5240 a.u. |
| CTAACGAAGGTTTGGTGTGTGGGTGACAAGCCAAGTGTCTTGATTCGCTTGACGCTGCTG | 5570 a.u. |
| GTCTTGTCTCATTGGAGAGTGGGTGTCCCCACTTCAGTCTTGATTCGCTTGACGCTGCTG | 4320 a.u. |
| CACTAAATTTGGAAGCTCGTGTACTCATAAACAATTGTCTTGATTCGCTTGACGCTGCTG | 10800 a.u. |
| GTTGGACCTTGGTTCCACGGGGTTCATTTCAGGCTGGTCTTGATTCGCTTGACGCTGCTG | 7340 a.u. |
| GAAAAATTAATCCGACATGTGGAATATTTCCTTCCGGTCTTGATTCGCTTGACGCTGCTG | 8720 a.u. |
| GCTTGTATGCTATACCATGTGATATGTAATAGTACAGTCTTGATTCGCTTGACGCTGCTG | 8860 a.u. |
| TGGAAGTGTGTGAATTTCGTGATGGAATTATTGTCAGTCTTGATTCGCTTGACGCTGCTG | 5140 a.u. |
| TGAACCCTTGATATAAACGTGATGGTTATTATCGGTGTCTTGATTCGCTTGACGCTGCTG | 10800 a.u. |
| CGTCCTAGTGATTTTCACGTGGTCTCCATGAGGAAGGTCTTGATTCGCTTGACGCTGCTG | 13200 a.u. |
| CAGCAACGGACAGGCGTCGTGCGGACAAACTTGCTCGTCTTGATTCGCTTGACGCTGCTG | 7210 a.u. |
| TTTTATTCCTGGAAAAGCGTGCAAATATTTTTCGAGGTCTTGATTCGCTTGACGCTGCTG | 7980 a.u. |
| GTCTTGTCTCATTTTCACGTGCGCTTCCCCACTTCAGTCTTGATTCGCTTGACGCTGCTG | 15700 a.u. |
| CTTCTGTAAATTTGTACGGTGGGTGGACGCGCCCCGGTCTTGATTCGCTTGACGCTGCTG | 3960 a.u. |

Block 4
Target: RING finger protein unkempt homolog, zinc fingers 1-6, GST-SBP tag (UNK, Homo sapiens, UniProt Q9C0B0, residues 30-357)
Technique: RNA Bind-n-Seq
Molecule type: RNA
Sample: in vitro
Concentration: not given
Setting: RNA with constant flanks, ends assumed
Relative to: input RNA pool
Reading: higher = stronger binding
Target sequence (chain): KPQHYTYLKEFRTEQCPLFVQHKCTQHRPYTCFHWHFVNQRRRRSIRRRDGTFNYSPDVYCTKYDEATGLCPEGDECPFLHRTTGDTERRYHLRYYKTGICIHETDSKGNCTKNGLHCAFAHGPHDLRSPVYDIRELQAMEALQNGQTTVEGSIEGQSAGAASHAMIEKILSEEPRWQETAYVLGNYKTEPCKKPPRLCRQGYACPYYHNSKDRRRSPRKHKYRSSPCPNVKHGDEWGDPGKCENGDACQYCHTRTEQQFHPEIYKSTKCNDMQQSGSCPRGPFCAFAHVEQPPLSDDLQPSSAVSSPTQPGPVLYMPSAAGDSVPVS
| Strand | bound/input enrichment |
| --- | --- |
| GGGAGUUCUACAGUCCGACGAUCCUUCCCUUUGGAGACAAAGACACAAAAUCCAAAGUGACCCUGCUGGAAGGUGACCAUGUCCGGUUUAAUAUUUCAACAGACCGACGUGACAAAUUGGAACGAGCAACCAACAUAGAGGUUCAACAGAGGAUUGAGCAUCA | 0.255 ratio |
| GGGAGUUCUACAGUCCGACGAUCUUCCAGUCAUCUACCGCCCUUUUGUGUUCACCUCUUUUACCCUCCAAUCAACUUCCCAGGUCCGCCCAUCAGUCUGCCAUCUGUCCCUCUGCCCACUGAUCCAUCCAUGUAUGCCCUUGCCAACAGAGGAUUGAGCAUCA | 0.5 ratio |
| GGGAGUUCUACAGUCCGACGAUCUUUUUAUGCGACCAUUGUCUCCGUGGUUGGGCUGCAUGUAGUUUUGGCAAUUUUUGUUUUUACCGUAUGGAAGGAAGGUUUGCCACAGUGGCGGGAAAACAAAAAUGAUUAGGGCAGCAGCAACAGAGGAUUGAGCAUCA | 0.539 ratio |
| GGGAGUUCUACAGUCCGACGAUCGCCAUGACACUUGAUGAGACUAGUGUGUCUGCCCUAGUUGGAUUUAUCCAAUGUCAGUUGACCGAAGGGCAAUUACAGGAUGCAGAUCAGCAGCUAGAAUUUUUAAAUGAAAUCCAGCAACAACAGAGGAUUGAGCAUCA | 0.372 ratio |
| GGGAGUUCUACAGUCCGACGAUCACUUCAUCUUCCUCCUCUGAAGAUGAACAGCACUUUGAGAGGCGGAGGAAAAGGAGUCGUAACCGGGCUAUCAAUAGGUGCCUCCCACUAAAUUUUCGGAAAGAUGAAUUAAAAGGCAUUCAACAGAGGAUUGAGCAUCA | 0.0683 ratio |
| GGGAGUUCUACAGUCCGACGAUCCGCGUCCUGCGCCGGACUCGGAUUGCCAAAAACCUGGAGUUAGAACAAGUGACUGUCCCAACCGGUGUUUUACUGGUGAUCUUUGAGUCUCGCCCUGACUGUCUACCCCAGGUGGCAGCCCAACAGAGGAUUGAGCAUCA | 0.125 ratio |
| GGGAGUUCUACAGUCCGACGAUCUUCCUCUGCUUGUUUUGAGCCCACCUUGGGGGCUGCUCGUGUAAUGAGAUUUUGAGAAGGCCGCUCCCGCCCAGGUGGGGUCCAGGUUUAGAGUCAGUAGCAGAUGCACCCCACACAAGCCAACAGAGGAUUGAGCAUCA | 0.283 ratio |
| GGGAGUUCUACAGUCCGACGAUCUUUCUCAAAUCCCUAAAUUUCUGAUUUCCAUUCAAGUCUUUUAAACUCUUUCCUGCUGAACCGCAAAGAACUUUUAUUUUCCACUUUCCUAUAUUCCUAAAAAGUGUGAACAAUGCGUUUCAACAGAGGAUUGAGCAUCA | 0.399 ratio |

For quick reference, copied from above (block 3):
| Strand | fluorescence intensity |
| --- | --- |
| CTTTCCCGATCTTGTGCAGTGGGTGTAGCACATTTGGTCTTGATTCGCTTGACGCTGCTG | 5240 a.u. |
| CTAACGAAGGTTTGGTGTGTGGGTGACAAGCCAAGTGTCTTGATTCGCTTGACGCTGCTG | 5570 a.u. |
| GTCTTGTCTCATTGGAGAGTGGGTGTCCCCACTTCAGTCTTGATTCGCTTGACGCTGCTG | 4320 a.u. |
| CACTAAATTTGGAAGCTCGTGTACTCATAAACAATTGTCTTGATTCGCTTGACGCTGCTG | 10800 a.u. |
| GTTGGACCTTGGTTCCACGGGGTTCATTTCAGGCTGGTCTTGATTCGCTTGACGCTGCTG | 7340 a.u. |
